Assay results pooled from the literature.
Protocols differ between the studies behind these lines.
Medium: plasma

Structure (SMILES)	host	route	dose	notes	half-life [h]
Cc1[nH]c2ccccc2c1CCNCc1ccc(/C=C/C(=O)NO)cc1	human	oral	20 mg	single dose, fed	13.7
C#C[C@]1(CO)O[C@@H](n2cnc3c(N)nc(F)nc32)C[C@@H]1O	human	oral	200 mg	single dose, fasted, healthy volunteers	61.4
O=C(O)COC[C@H]1CC[C@H](COC(=O)N(c2ccccc2)c2ccc(Cl)cc2)CC1	human	oral	30 µg	single dose, healthy volunteers	20.5
C[C@@H]1CCC[C@H](n2cnc(-c3cc(Cl)ccc3-n3cc(Cl)nn3)cc2=O)c2cc(ccn2)-c2c(cnn2C(F)F)NC1=O	human	oral	200 mg	single dose, fasted, healthy volunteers	10.5
O=C(c1nc2n(n1)[C@H](c1ccccc1)C[C@@H]2F)C1CC1	human	oral	5 mg	single dose, fasted, healthy volunteers	12.1
Cc1ccsc1C(=O)Nc1cc(CN2CCN(C(=O)CO)CC2)ccc1/C=C/c1n[nH]c2ccccc12	human	oral	50 mg/day	patients	11
Nc1ccc(-c2nc([C@H]3CCc4cc(-c5cc(Cl)ccc5-n5cnnn5)cc(=O)n43)c(F)[nH]2)c(F)n1	human	oral	300 mg	single dose, fasted	19.8
CS(=O)(=O)n1cc2c(n1)CN([C@H]1CO[C@H](c3cc(F)ccc3F)[C@@H](N)C1)C2	male human	oral	5 mg	single dose, fasted, healthy volunteers	66.7
CCCOc1ccc([C@H]2CNC(=O)N2c2ccc3[nH]cnc3c2)cc1	human	oral	800 mg	fasted	7.77
CNC(=O)c1ccccc1Sc1ccc2c(/C=C/c3ccccn3)n[nH]c2c1	human	oral	10 mg	single dose, fed	5.9
C=CC(=O)Nc1cc(Nc2ncc(C(=O)OC(C)C)c(-c3cn(C)c4ccccc34)n2)c(OC)cc1N(C)CCN(C)C	human	oral	40 mg	single dose, fasted, healthy volunteers	16
CNc1nc(Nc2ccc(-n3cnc(C)n3)c(OC)c2)nc2c1CC[C@H]2c1ccc(F)cc1	human	oral	10 mg	single dose, healthy volunteers	16
COc1cccc(-c2ccc(NC(=O)C3=C(C(=O)O)CCC3)c(F)c2)c1	male human	oral	10 mg	single dose, fasted, healthy volunteers	26.6
CC(=O)N[C@H]1CC[C@H](NC(=O)CN2CCN(c3nncc(-c4ccc(C)cc4)n3)CC2)CC1	male human	oral	100 mg	single dose, fasted	11.4
COc1cc(N2CCC(N3CCN(C)CC3)CC2)ccc1Nc1ncc(Cl)c(Nc2ccccc2P(C)(C)=O)n1	human	oral	180 mg	single dose, healthy volunteers	25.1
O=C1CCc2cc(OC[C@H](O)CN3CCN(c4ccc(C(F)(F)F)cc4)CC3)ccc2N1	human	intravenous	5 mg	single dose, healthy volunteers, infusion	28

For quick reference, copied from above:
Structure (SMILES)	host	route	dose	notes	half-life [h]
Cc1[nH]c2ccccc2c1CCNCc1ccc(/C=C/C(=O)NO)cc1	human	oral	20 mg	single dose, fed	13.7
